Values quoted from earlier work as cited in several papers.
Each numbered part shows a few of the values that one paper quotes.

Sample 1 — read-out: peptide-MHC binding; form: peptide; endpoint: IC50
Target: HLA class I histocompatibility antigen, B alpha chain, allele B*51:01 (Homo sapiens, UniProt P01889)
QPQEQVPL: 41 nM
FPQPQLPY: 20.4 nM
IPCRDVVL: 67.7 nM

Further values, each from its own experiment
O=C1C[C@@H](c2ccc(O)cc2)Oc2cc(O)cc(O)c21
plasma concentration (human, plasma; concentration not given, added: grapefruit juice): ~6 µM

CCN(CC)CCCC(C)Nc1ccnc2cc(Cl)ccc12 (centres unmarked)
blood-to-plasma ratio (human): 5

FC(F)(F)c1ccc(Oc2ccc(-c3noc(-c4ccc5[nH]ccc5c4)n3)cc2)cc1
antibacterial activity (Gram-negative bacteria; concentration not given): inactive

COc1ccc2cc1Oc1ccc(cc1)C[C@H]1c3cc(c(OC)cc3CCN1C)Oc1c(OC)c(OC)cc3c1[C@H](C2)N(C)CC3
blood-to-plasma ratio (human): 2.33

C=CCONC(=O)c1ccc2oc(-c3ccccc3O)nc2c1
concentration for 50% reduction (degrader, item: REST; cells): 50 to 100 µM

Repeated from above (further values, each from its own experiment):
FC(F)(F)c1ccc(Oc2ccc(-c3noc(-c4ccc5[nH]ccc5c4)n3)cc2)cc1
antibacterial activity (Gram-negative bacteria; concentration not given): inactive
